# Experimental data collected from several papers.
# A part holds a random share of what one study measured. Positions count from the first letter of the parent shown.

# Study 1
# Target: ABI1, truncated, D143A, DHFR fusion (Arabidopsis thaliana)
# Technique: DHFR PCA, deep sequencing
# Sample: yeast
# Setting: methotrexate growth selection, single substitutions
# Together with: (+)-ABA 0.39 µM
# Reference: wild-type fitted maximum
# Direction: higher = stronger binding
# Parent: PYL1, truncated, DHFR fusion (Arabidopsis thaliana); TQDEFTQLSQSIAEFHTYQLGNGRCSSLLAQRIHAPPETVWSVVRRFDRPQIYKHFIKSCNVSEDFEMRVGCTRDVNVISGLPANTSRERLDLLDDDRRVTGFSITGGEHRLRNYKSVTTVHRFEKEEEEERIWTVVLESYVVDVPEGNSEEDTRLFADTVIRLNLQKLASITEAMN; partner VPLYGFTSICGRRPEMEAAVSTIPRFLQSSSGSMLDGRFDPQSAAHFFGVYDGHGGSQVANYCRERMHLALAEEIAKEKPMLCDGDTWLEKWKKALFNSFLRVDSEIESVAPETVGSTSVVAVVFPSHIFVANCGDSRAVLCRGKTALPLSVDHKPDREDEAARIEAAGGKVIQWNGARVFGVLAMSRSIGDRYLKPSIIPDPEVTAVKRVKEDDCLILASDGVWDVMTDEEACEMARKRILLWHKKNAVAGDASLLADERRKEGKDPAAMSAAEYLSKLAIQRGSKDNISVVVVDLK
Variant,relative binding score [%]
L156T,53
F47Y,-3.29
H55Q,82.5
V142T,17.2
Q7N,35
R163P,6.74
S117K,-0.498
K58N,-3.51
R99Q,29.6
L94P,-2.13
A35W,-11.7
L94F,48.9
E130V,36
R90V,21.3
T101H,-5.61
D92A,-7.58
F56Y,9.72
E174R,-4.4

# Study 2
# Target: BATF, bZIP domain (human)
# Technique: DHFR protein complementation
# Sample: yeast
# Setting: single substitutions, most at no-binding floor
# Reference: wild-type JUN-FOS pair
# Direction: higher = stronger binding
# Parent: JUN, bZIP domain (human); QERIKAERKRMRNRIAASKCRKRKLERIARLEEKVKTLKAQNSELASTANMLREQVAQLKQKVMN; partner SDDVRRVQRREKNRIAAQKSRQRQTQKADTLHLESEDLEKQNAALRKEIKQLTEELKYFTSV
Variant,binding fitness [natural log]
V56C,-0.202
V56P,-1.11
K36H,-0.0956
I28P,-0.0776
V56R,-0.919
S47N,-0.0104
T48E,-0.0936
L45Q,-1.39
R53A,-0.195
L45I,-0.969
A49S,-0.361
A46I,0.0521
E54A,-0.0644
L45W,-0.683
A29T,-0.0206
A46S,-0.00416
S47H,0.0479
K39G,-0.366
S43A,0.113
L38Q,-0.0932
V35N,-0.188
T37L,0.105
E44Q,-0.0149
T48P,-1.25
L52S,-1.34

# Study 3
# Target: Sal-like protein 4, full length isoform B (SALL4, Homo sapiens, UniProt Q9UJQ4-2, residues 1-616)
# Technique: universal PBM
# Form: double-stranded DNA, one strand shown
# Sample: in vitro
# Tested at: not given
# Setting: 8-mer, flanks averaged, mean of replicates
# Direction: higher = stronger binding
Oligonucleotide,E-score
CGTCATCC,-0.168
ACGTTTAC,0.0722
GGCCGTAA,-0.183
ATAAGGAC,0.114
GAGTACGC,-0.211
GGTGTCCA,-0.0922
ACACTTCT,-0.106
CACTTCTC,-0.146
AGTTCTGC,-0.0601
GCTCATCC,-0.206
GGGGCTTA,-0.204
GTGGCTAA,0.0176
ATGCAACA,0.146
CCTGGCGA,-0.263
GCAGGTAC,-0.212
TAGATGCA,0.0629
ACAGACAT,0.199
ATATGGGC,0.187
ACATAACG,0.284
CTGTCCGA,-0.137
CTGTATCC,0.183
GAACCAAA,-0.142
AATATTGA,0.416
TAACTCTA,0.0836
AACTGAGT,-0.00403

# Study 4
# Target: Histone acetyltransferase KAT6A, winged helix 2, GST fusion (KAT6A, Homo sapiens, UniProt Q92794, residues 85-181)
# Technique: protein binding microarray
# Form: double-stranded DNA, one strand shown
# Sample: in vitro
# Tested at: not given
# Setting: 8-mer, flanks averaged, mean of 2 arrays, mostly near background
# Reference: not given
# Direction: higher = stronger binding
# Target sequence (chain): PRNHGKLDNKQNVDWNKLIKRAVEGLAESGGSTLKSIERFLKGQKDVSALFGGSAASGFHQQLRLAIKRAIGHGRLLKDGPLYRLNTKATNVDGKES
Oligonucleotide,E-score
CCCGCCGA,0.207
AAGGATGG,-0.0389
AAGCTACT,0.00353
ACTCACAA,-0.0146
GGATCGAA,0.0781
TCCATGCA,0.0466
CCGAGCAG,0.136
ACGAGTAC,-0.0856
ACATTTAC,-0.158
CCGAAGAC,0.114
ATATTCTC,0.00596
CTTGACGC,-0.0258
CTCAATAC,0.0046
GTAGCCAC,0.0403
AGCCCAGC,0.138
CCCTTTAC,-0.168
AATCGAAC,-0.035
GAAATCGA,-0.00764
TATAACAA,0.0649
ATGCGTCC,0.0254
CACGGCTG,-0.0261
CACTCACC,-0.0164
CTTCAGAC,-0.0718
ATTCAACG,0.00505
AGTCAGGG,-0.0932

# Study 5
# Target: Ras GTPase-activating protein-binding protein 1, full length (G3BP1, Homo sapiens, UniProt Q13283)
# Sequence of UniProt Q13283 (whole entry, looked up): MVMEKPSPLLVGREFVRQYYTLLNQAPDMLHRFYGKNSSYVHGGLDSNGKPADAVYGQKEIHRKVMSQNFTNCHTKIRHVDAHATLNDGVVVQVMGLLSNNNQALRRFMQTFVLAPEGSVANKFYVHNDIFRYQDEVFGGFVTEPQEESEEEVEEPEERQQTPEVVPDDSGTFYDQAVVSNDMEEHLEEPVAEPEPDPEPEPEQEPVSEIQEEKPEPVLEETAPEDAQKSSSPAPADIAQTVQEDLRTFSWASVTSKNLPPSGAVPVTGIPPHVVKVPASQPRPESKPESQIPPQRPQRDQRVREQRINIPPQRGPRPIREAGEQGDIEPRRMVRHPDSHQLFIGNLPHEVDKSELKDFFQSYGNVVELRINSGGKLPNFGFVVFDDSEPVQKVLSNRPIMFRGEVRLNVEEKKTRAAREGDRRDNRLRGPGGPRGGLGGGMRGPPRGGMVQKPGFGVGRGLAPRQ
# Technique: RNA Bind-n-Seq
# Form: RNA
# Sample: in vitro
# Tested at: 200 nM
# Setting: whole 134-nt RNA, ends assumed
# Together with: 150 mM KCl
# Reference: input library
# Direction: higher = stronger binding
# All sequences stand within: GGGAGUUCUACAGUCCGACGAUC … UGGAAUUCUCGGGUGUCAAGG
Oligonucleotide,log2 enrichment
UAACUUUAGAGGAGGAUCUGAUGGAUAUGGCAGUGGACGUGGAUUUGGGGAUGGCUAUAAUGCGUAUGGAGGAGGACCUGGAGGUGGCAA,0.121
UAACUUUAGAGGAGGAUCUGAUGGAUAUGGCAGUGGACGUGGAUUUGGGGAUGGCUAUAAUUGGUAUGGAGGAGGACCUGGAGGUGGCAA,0.224
UCCUGUGCUACACAUCGUAUGUACCGAAUCGGGGAAAAAGGGGAAAAAGGGAAAAAGGGAAAGUAUUAUGUUACGCCGUUCGGAUCUGCA,0.0857
CUCAAGUCCUGUGCUACACAUCGUAUGUACCGAAUCGGGCGGGGCGGGGCGGGAAAGUAUUAUGUUACGCCGUUCGGAUCUGCACUUCCA,1.49
CUGUGCUACACAUCGUAUGUACCGAAUCGGGAAAAAAAGGAAAAAAAGGGGAAAAAAAGGGGAAAGUAUUAUGUUACGCCGUUCGGAUCU,-0.632
UGGGAGGUGGAUUUUGUUUAUUUUUUUAGCUCAUUUCCAGGGGUGGGAAAUUUUUUUUAAUAUGUGUCAUGAAUAAAGUUGUUUUUGAAA,0.302
GUCCUGUGCUACACAUCGUAUGUACCGAAUCGGGGAAAAAAAGGGGUUUGGGGAGGGGAAAGUAUUAUGUUACGCCGUUCGGAUCUGCAC,0.444
UAACUUUAGAGGAGGAUCUGAUGGAUAUGGCAUUGGACGUGGAUUUGGGGAUGGCUAUAAUGGGUAUGGAGGAGGACCUGGAGGUGGCAA,0.423
CUCAAGUCCUGUGCUACACAUCGUAUGUACCGAAUCGGAAAGGUGGAAAAAGGAAAGUAUUAUGUUACGCCGUUCGGAUCUGCACUUCCA,-0.594
ACCAUGCAGGUGGGCAUCUUCGGGAAGUGGGGCAAGGGGGGGAUAGGGAGGGGGGUAACACUUUGGGAACAGGUGGUCCCAGGUCGUUUC,1.1
CACAGACAACACGCACCCACACAGACACAGAGGGAAGGGGUUGGGAUGGGAACAGGGUGCACAGCAGGGCGGGGUAGGACCCCAGCCCCU,1.91
CUGUGCUACACAUCGUAUGUACCGAAUCGGGGAAAAAAAGGGGUUUUUGGGGAAAAAGGGGAAAGUAUUAUGUUACGCCGUUCGGAUCUG,-0.173
UCCUGUGCUACACAUCGUAUGUACCGAAUCGGGUUUUUUGGGUUUUUUGGGGUUUUUUGGAAAGUAUUAUGUUACGCCGUUCGGAUCUGC,-0.164
AACACUCAAACCACCAUCAAGCUUUUCCAGGAAUGCUGUCCUCAUUCCACUGACAGAGUUGUUCUUAUUGGAGGAAAACCCGAUAGGGUU,-0.0262

# Study 6
# Target: CCNB1, cyclin fold, Cln2 fusion (human)
# Technique: yeast growth competition, sequencing
# Sample: yeast
# Setting: weak parent motif
# Reference: not given
# Direction: higher = stronger binding
# Parent: CDKN1B docking peptide (human); PSACRNLFGPVDH
Variant,normalised enrichment score
PSACRNLFGGVDH [P10G],0.532
PSACGNLFGPVDH [R5G],-0.00609
PSGCRNLFGPVDH [A3G],-0.0103
QSACRNLFGPVDH [P1Q],0.757
PNACRNLFGPVDH [S2N],0.628
PSALRNLFGPVDH [C4L],0.462
PSACRNMFGPVDH [L7M],0.512
NSACRNLFGPVDH [P1N],0.671
PSACRNLFGPYDH [V11Y],0.199
PSACRYLFGPVDH [N6Y],0.114
PSACRNLFGPVWH [D12W],0.755
DSACRNLFGPVDH [P1D],-0.175
PSVCRNLFGPVDH [A3V],1.94
PSACRNIFGPVDH [L7I],0.736
PSACRNLFGPVDV [H13V],-0.22
PSACVNLFGPVDH [R5V],0.518
PSACRNLFGVVDH [P10V],0.37
FSACRNLFGPVDH [P1F],0.429
PSACRNLFGPCDH [V11C],0.0468
PSACRNLFRPVDH [G9R],-0.303
PSACRNLLGPVDH [F8L],-0.00382
PSACRNLFGAVDH [P10A],0.167
PSACRNLFGPVEH [D12E],0.197
PSACRNWFGPVDH [L7W],-0.00275
PSAGRNLFGPVDH [C4G],-0.0534
